Assay results collected from several papers.
Every numbered part comes from another study and shows a few of its results, in no order.

Set 1
Target: RNA binding protein fox-1 homolog 2, RRM domain, GST-SBP tag (RBFOX2, Homo sapiens, UniProt O43251-10, residues 100-194)
Method: RNA Bind-n-Seq
Molecule type: RNA
Sample: in vitro
Concentration: 365 nM
Notes: natural RNA segment, single round, ends assumed
Relative to: no-protein control
Direction: higher = stronger binding
Shared flanks, not repeated: GGGAGUUCUACAGUCCGACGAUC … UGGAAUUCUCGGGUGCCAA
Residues (chain): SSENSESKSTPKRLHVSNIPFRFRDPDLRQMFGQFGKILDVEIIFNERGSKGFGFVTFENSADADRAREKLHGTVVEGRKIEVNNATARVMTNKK
| Sequence | RBNS enrichment (R) |
| --- | --- |
| CAAAUAAACACAUACUCAUUGUGAACUCUCUGUUGUUGUCCAUUUCAAAUCUGGAUUGUUCUGUGAAGGGUCUCACUUUUGUAUCAUGAGACAAGAGUGCCUAUGAGAAA | 0.506 |
| ACUUUUUGUGGAAUUCUCUGAUAAAGGAAGCUUUUAGGAUGGUAUCUAUCAGGCCACCAGCAGGAAUUGAAAAUGUUUUCACAAAAAUCCUUUUCCUUAGAAAUAAAAGC | 0.652 |
| UUGGUUCUCUCCUUGGACUUAAGGAAUCUUACCUUUUCCUUCCACAAAGUUCUCCCAGGCAAGGACCAGCUGCCCAUUCUGAGCCCAGGGCAGCCUCUUCAACCAUUAUU | 0.468 |
| GCCCGGGGAGUAGCCCUGGGGGAGAGAGGGCAGUGUUGCCUAUCCCAGAGGUCCCAGCAGUCACACUGCUCUGCAGGCCGGGCUCUCUUUAUAGCCAGAGAAAUCACCUU | 0.14 |
| UACAUUUUGUUAUAGAAUACUUUUUUCUAGUUUCAGUAAAUAAUGAAAAGGAAGUUAAUACCAAUAAGUGUAAGCAGUAACCUUUUUUCUUUGGAUUAACCCUAGCCCUG | 0.412 |
| GUAAGUAGCUUUCUGACUACAUUAUUUUCUGGUCACUUUUAAAGAAAGUUUACAACCUGUUCUGAAACUAUUUGUCUUUUCACUGGUUGUAAGUGUACCCCAAUCUCAGG | 0.312 |
| AAGACUACUGGACUUGUAUCCAUGGUACUAUACUCAGUCCUCUUAUCUCAGCUUGCUGAGGGGCAGGGAGAGGGUCUCUUCCUCUGGGCAGCACUAUCUAGAUAGGUAAG | 0.272 |
| UAGCAGAGUUCAUGAAACCACAGCUCUUCCAAGCCAUGUACAUAGUUCAUGCUCAGCCCUGAACUCUAAUCUAGCCUGCAACCAGCCCUUCUCUCCUCUUAUCAUCUAAC | 0.388 |
| UUUAAUGGCAGUCACAACUCUGAAACCUUUUGUUCGUGCCGGCUUCAGGUCAAUGUGUUUAUGUGAUAAAUGGGAGUGAUAACAGAAGCUUUAAUGGGAGAGUAAGAAAU | 1.4 |
| CAUUUUUUCUUUGGUCAGAAGCCAGGAACUGGUGUCAUUCCUUAAAAGAUACGUGCCGGGGCCAGGUGUGGUGGCUCACGCCUGUAAUCCCAGCACUUUGGGAGGCCGAG | 0.285 |
| UGGUAAAGAAGAUAAAUAGGUGAAUUUUAUUGCCUGUGUUUUCAGGCUUCAGAGGUACCUGGCACCUUACUCAAGCAAAAACAAAAAACAGCUUUACUUCAAAAGCAUGU | 0.672 |
| GACCUUCAGUCCAGGACAGACCCUGUCAUGGCUUCUUGCUGUCUUACCCUUCUCACUCACCAGGCCCACAGUCGCCUGCACUCAGUGCUGUUUGUAACACAUCUGUUAUU | 0.715 |

Set 2
Target: Ras GTPase-activating protein-binding protein 1, full length (G3BP1, Homo sapiens, UniProt Q13283)
Chain of UniProt Q13283 (whole entry, looked up): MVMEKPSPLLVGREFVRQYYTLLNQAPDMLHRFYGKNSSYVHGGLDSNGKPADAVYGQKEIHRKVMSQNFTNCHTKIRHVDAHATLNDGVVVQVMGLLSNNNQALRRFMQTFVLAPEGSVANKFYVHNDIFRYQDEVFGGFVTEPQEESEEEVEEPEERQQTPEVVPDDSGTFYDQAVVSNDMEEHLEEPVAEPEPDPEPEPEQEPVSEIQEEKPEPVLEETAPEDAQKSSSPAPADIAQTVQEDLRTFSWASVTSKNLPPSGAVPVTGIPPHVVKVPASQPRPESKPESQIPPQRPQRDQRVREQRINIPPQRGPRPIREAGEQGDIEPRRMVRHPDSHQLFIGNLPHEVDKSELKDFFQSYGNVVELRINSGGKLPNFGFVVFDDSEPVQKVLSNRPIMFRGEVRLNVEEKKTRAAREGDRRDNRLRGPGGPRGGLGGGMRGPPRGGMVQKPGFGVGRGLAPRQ
Method: RNA Bind-n-Seq
Molecule type: RNA
Sample: in vitro
Concentration: 200 nM
Notes: whole 134-nt RNA, ends assumed
Together with: 150 mM LiCl
Relative to: input library
Direction: higher = stronger binding
All molecules: 7-deaza-guanosine replaces G
Shared flanks, not repeated: GGGAGUUCUACAGUCCGACGAUC … UGGAAUUCUCGGGUGUCAAGG
| Sequence | log2 enrichment |
| --- | --- |
| UCAAGUCCUGUGCUACACAUCGUAUGUACCGAAUCGGGUGGGUUUGGGAAAGGGAAAGUAUUAUGUUACGCCGUUCGGAUCUGCACUUCC | -0.042 |
| CCUGUGCUACACAUCGUAUGUACCGAAUCGGGGAAAAAAGGGAAAAAAGGGGAAAAAAGGGAAAGUAUUAUGUUACGCCGUUCGGAUCUG | 0.661 |
| GUCCUGUGCUACACAUCGUAUGUACCGAAUCGGGGAAAGGGGAAAAAAAGGGGAGGGGAAAGUAUUAUGUUACGCCGUUCGGAUCUGCAC | 0.56 |
| CCUCAAGUCCUGUGCUACACAUCGUAUGUACCGAAUCGGGAGGGUGGGAGGGAAAGUAUUAUGUUACGCCGUUCGGAUCUGCACUUCCAG | -0.345 |
| CUCAAGUCCUGUGCUACACAUCGUAUGUACCGAAUCGGUUGGGGUUGGUUGGGGAAAGUAUUAUGUUACGCCGUUCGGAUCUGCACUUCC | 0.0855 |
| UGGGAGGUGGAUUUUGUUUAUUUUUUUAUCUCAUUUCCAGGGGUGGGAAUUUUUUUUUAAUAUGUGUCAUGAAUAAAGUUGUUUUUGAAA | -0.567 |
| GCAGGAAGUAAAAACAAAUGGAAAUGCUUCGGAUAGUGGCAGGGGUGGGGGUUGCUAAGGAAAGCGUGGGAUGGGAGUGGGUAAAGAGUU | 0.122 |
| AAGUCCUGUGCUACACAUCGUAUGUACCGAAUCGGAAAAGGGGAAAAGGGAAAAGGGAAAGUAUUAUGUUACGCCGUUCGGAUCUGCACU | 0.305 |
| GCAGGAAGUAAAGACAAAUGGAAAUGCUUCGGAUAGUGGCAGGGGUGGGGGUUGCUAAGGAAAGGGUGGGAUGGGAGUGGGUAAAGAGUU | -0.35 |
| GUCCUGUGCUACACAUCGUAUGUACCGAAUCGGGGAAAAAAAGGGGUGGGGAAAGGGGAAAGUAUUAUGUUACGCCGUUCGGAUCUGCAC | -0.193 |
| UAUAUUGAGGUAUAGAGCUAUUCUUUGUAGGUACCCUGGUGAGACCGAUACAAAUAUGCCCCUCCCCAUAAUGGAAUACUAAUUUUUAUU | 0.0455 |

Set 3
Target: PABPC1L2, full length, GST fusion (mouse, UniProt A0ABA7IW68)
Method: RNAcompete
Molecule type: RNA
Sample: in vitro
Concentration: 20 nM
Notes: 7-mer, probes averaged, single round
Relative to: mean of 7-mers
Direction: higher = stronger binding
Target sequence (chain): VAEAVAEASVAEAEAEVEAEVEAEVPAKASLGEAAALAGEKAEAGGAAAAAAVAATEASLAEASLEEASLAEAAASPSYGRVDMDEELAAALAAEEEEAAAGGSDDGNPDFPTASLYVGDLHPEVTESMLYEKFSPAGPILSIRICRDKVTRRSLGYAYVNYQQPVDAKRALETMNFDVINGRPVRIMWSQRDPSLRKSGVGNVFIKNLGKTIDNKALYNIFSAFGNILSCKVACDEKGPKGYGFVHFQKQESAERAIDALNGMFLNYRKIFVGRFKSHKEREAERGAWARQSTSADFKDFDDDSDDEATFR
| Sequence | 7-mer Z-score |
| --- | --- |
| CCCGCGG | -0.423 |
| UUAACUU | -0.226 |
| AUGAUCA | -0.00289 |
| GGCGGGG | 0.338 |
| CUAGAUC | -0.104 |
| CUGUUCA | -0.4 |
| UGAUAUC | -0.161 |
| CGACCGA | 0.198 |
| CCAACCC | -0.358 |
| CACAGUC | -0.228 |
| CCCGUUG | -0.507 |
| GCGUUAA | -0.148 |
| UUUUUCU | -0.282 |
| AGUCACU | -0.126 |
| CGCCGUC | -0.479 |
| GUCGGCA | 0.184 |

Set 4
Target: Interferon regulatory factor 5, full length, phosphomimetic (IRF5, Homo sapiens, UniProt Q13568-2, residues 1-514, K96S/S451D/S453D/S456D/S462D)
Method: protein-binding microarray
Molecule type: double-stranded DNA, one strand shown
Sample: in vitro
Concentration: 250 nM
Notes: 60-bp whole probe
Together with: salmon DNA 0.4 mg/ml
Relative to: random background probes
Direction: higher = stronger binding
Shared flanks, not repeated: GCCTAGCAC … GTCTTGATTCGCTTGACGCTGCTG
| Sequence | log fluorescence [z-score] |
| --- | --- |
| TTAAAACTGGGGTATCGATTAGTGCTA | 3.03 |
| AGTTTTCTCATTCGTCATTTCGTGCTA | 2.25 |
| TCAGACCTCGTCTCTATCACTGTGCTA | 0.465 |
| TCATAATTCTTTGCTCATACTGTGCTA | 0.946 |
| TTAGGTATCGGTTCCGGTTAGTGCTAG | 7.77 |
| GACGGTATCGGGACTGGCGACGTGCTA | 1.08 |
| GACGGACTGGACTTTCGGGCCGTGCTA | 3.5 |
| TTAGGTTTCGACTTTAGGTTAGTGCTA | 6.72 |
| GACGGTCTCGGTTTCAGGACGTGCTAG | 1.04 |
| TCAAGTTCAGTTCTCTAACTGTGCTAG | -0.139 |
| CACGGTTTCCTTTCCCTGACGTGCTAG | 1.23 |
| CACTCTCTGCTTGTGTCTGGGTGCTAG | 0.336 |
| TCAAAAATAGAAACTCGTACTGTGCTA | 1.17 |
| TCATCTCTGCTTCTGTAACTGTGCTAG | 0.395 |
| TTCGGTCTCCTTTTCCTTTAGTGCTAG | 1.43 |
| GACGGTCTCCTACGGCTGACGTGCTAG | -0.613 |
| GACGAACTGAGTATCAAGACGTGCTAG | 0.0777 |
| CTAGGTTTCGGACTGGGTTAGTGCTAG | 4.44 |
| TCATCTTTCTGTCAGTTACTGTGCTAG | 4.58 |
| TTAGATATCGGATTTCGATTAGTGCTA | 4.52 |
| TCATCTTTGCTCATTTTTACTGTGCTA | 1.23 |
| GACTGTATCGACTATCGGGACGTGCTA | 4.14 |
| TTTGATCTCAGTCTCGATTAGTGCTAG | 1.08 |
| TTAGATTCCAGTTCCGATTAGTGCTAG | 1.24 |
| TTAGGTTTGCTTATCCTTTAGTGCTAG | 0.0301 |

A few entries again (set 1):
| Sequence | RBNS enrichment (R) |
| --- | --- |
| ACUUUUUGUGGAAUUCUCUGAUAAAGGAAGCUUUUAGGAUGGUAUCUAUCAGGCCACCAGCAGGAAUUGAAAAUGUUUUCACAAAAAUCCUUUUCCUUAGAAAUAAAAGC | 0.652 |
| UUGGUUCUCUCCUUGGACUUAAGGAAUCUUACCUUUUCCUUCCACAAAGUUCUCCCAGGCAAGGACCAGCUGCCCAUUCUGAGCCCAGGGCAGCCUCUUCAACCAUUAUU | 0.468 |
| UAGCAGAGUUCAUGAAACCACAGCUCUUCCAAGCCAUGUACAUAGUUCAUGCUCAGCCCUGAACUCUAAUCUAGCCUGCAACCAGCCCUUCUCUCCUCUUAUCAUCUAAC | 0.388 |
| CAUUUUUUCUUUGGUCAGAAGCCAGGAACUGGUGUCAUUCCUUAAAAGAUACGUGCCGGGGCCAGGUGUGGUGGCUCACGCCUGUAAUCCCAGCACUUUGGGAGGCCGAG | 0.285 |
| UACAUUUUGUUAUAGAAUACUUUUUUCUAGUUUCAGUAAAUAAUGAAAAGGAAGUUAAUACCAAUAAGUGUAAGCAGUAACCUUUUUUCUUUGGAUUAACCCUAGCCCUG | 0.412 |
| UUUAAUGGCAGUCACAACUCUGAAACCUUUUGUUCGUGCCGGCUUCAGGUCAAUGUGUUUAUGUGAUAAAUGGGAGUGAUAACAGAAGCUUUAAUGGGAGAGUAAGAAAU | 1.4 |
